Published values gathered from unrelated publications.
Every numbered part comes from another study and shows a few of its results, in no order. Changes are numbered by the printed parent chain.

Set 1
Target: CCNA2, cyclin fold, Cln2 fusion (human)
Method: yeast growth competition, sequencing
Matrix: yeast
Notes: strong parent motif
Relative to: not given
Direction: higher = stronger binding
Endpoint: normalised enrichment score
Parent: RBL1 docking peptide (human); GSAKRRLFGEDPP; partner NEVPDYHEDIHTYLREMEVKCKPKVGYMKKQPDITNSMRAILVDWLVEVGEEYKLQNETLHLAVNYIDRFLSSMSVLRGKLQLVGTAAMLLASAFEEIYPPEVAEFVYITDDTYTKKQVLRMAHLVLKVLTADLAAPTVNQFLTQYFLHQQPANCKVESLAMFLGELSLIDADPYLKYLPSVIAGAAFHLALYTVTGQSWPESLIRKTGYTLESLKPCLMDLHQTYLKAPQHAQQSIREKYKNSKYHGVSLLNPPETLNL
GSAKRRLFREDPP [G9R]: 6.7
GSAKRRLFGEIPP [D11I]: 5.36
GSAKRRLFGEDTP [P12T]: 6.22
GSAKRRLFTEDPP [G9T]: 5.94

Set 2
Target: Phosphate system positive regulatory protein PHO4, full length, GST-tagged (PHO4, Saccharomyces cerevisiae, UniProt P07270, residues 1-312)
Method: competition protein-binding microarray
Form: double-stranded DNA, one strand shown
Matrix: in vitro
Concentration: 2 µM
Notes: whole 60-bp probe, lowest competitor level
Together with: Cbf1 competitor, 0.05 µM
Direction: higher = stronger binding
Endpoint: fluorescence intensity
Constant ends, left off below: … GTCTTGATTCGCTTGACGCTGCTG
Target sequence (chain): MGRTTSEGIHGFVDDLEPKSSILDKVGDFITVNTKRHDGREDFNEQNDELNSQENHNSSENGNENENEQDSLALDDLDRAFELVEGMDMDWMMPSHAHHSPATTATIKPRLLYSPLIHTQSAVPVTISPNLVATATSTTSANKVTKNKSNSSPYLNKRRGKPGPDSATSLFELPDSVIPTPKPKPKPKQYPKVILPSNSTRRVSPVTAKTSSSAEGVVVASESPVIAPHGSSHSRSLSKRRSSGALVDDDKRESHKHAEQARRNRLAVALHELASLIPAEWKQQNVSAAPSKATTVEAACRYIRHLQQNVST
TATTTTAACATGGTCTCCGTGCCGACGGCGTACCCA: 5150 a.u.
TGCGCAACAACTTGTAGCGTGGGTGTATGTCTAGAA: 6600 a.u.
CTTCTGTAAATTTGGCTAGTGGGTGGACGCGCCCCG: 4040 a.u.
CATACCCAACCTTCGCACGTGTTTTAAGATATTTGT: 21900 a.u.
TTTCAATTCTATCTTACTTTTCATTGCCATTTTACT: 3290 a.u.
GCTGCGGCGGAAAAAAACGTGACGGCTTTTAGCACA: 10700 a.u.

Set 3
Target: RING finger protein unkempt homolog, zinc fingers 1-6, GST-SBP tag (UNK, Homo sapiens, UniProt Q9C0B0, residues 30-357)
Method: RNA Bind-n-Seq
Form: RNA
Matrix: in vitro
Concentration: not given
Notes: RNA with constant flanks, human and mouse sites, ends assumed
Relative to: input RNA pool
Direction: higher = stronger binding
Endpoint: bound/input enrichment
Construct (chain): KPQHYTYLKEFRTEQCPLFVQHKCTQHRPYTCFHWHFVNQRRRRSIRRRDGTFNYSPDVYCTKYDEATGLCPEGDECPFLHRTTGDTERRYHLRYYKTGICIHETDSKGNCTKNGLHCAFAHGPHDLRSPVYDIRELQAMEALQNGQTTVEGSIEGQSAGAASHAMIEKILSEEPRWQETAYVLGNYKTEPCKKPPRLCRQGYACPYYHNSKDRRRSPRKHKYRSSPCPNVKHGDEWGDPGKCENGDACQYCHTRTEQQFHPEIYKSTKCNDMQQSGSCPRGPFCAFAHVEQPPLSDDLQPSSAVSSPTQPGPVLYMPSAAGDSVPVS
GGGAGUUCUACAGUCCGACGAUCUUUGCAGUUUAUGACGGUCAUGCUGGAUCCCGAGUGGCAAAUUACUGUUCAACACAUCUAUUAGAACACAUCACCACCAAUGAAGACUUCAGGGCAGCUGACAAAUCAGGCUCUGCUCUCCAACAGAGGAUUGAGCAUCA: 0.238 ratio
GGGAGUUCUACAGUCCGACGAUCCCAUGAAAAAGGAAGAGGACAAUUCAUAGAGAAUAAAAUCUAUGCAAACAACUUUGCAGGUGUAUGGAUUACCUCAAAUAGUGACCCAACAAUAAGGGGAAAUUCUAUAUUUAAUGGAAACAACAGAGGAUUGAGCAUCA: 0.463 ratio
GGGAGUUCUACAGUCCGACGAUCUGGCAAGACUACCAUCCUGUACAAACUGAAGUUGGGGGAGAUUGUCACCACCAUCCCCACUAUAGGUGAGUCCAGGACAAGGAGCGGGAAGCAGGAAUGUCGCUUUGAGCCUUGUCGGGGCAACAGAGGAUUGAGCAUCA: 0.0944 ratio
GGGAGUUCUACAGUCCGACGAUCCUACCCAGCCCUCUUCUUGUUUGUAUUUGUUUAGGGUUGUGAGGUUGUGUAAAAUAGUACUAGCUUCUUACUUGAGAACUACAGUUUCUGCUUAUCAUUUAUUCUUCCUUGUGGCACUUACAACAGAGGAUUGAGCAUCA: 0.418 ratio

Single results of other studies
PhoQ, residues 284 288 289 292 302 303 TVTVVA  fold induction (PhoP, residues 12 14 15 18 19 SGWQI (Escherichia coli, UniProt P23836); Sort-seq, measured: YFP reporter; E. coli; PhoQ-PhoP variant library, together with: 10 µM Mg2+; relative to: high Mg2+ state, higher = stronger signaling): 10.5

Some of these lines once more (set 1):
GSAKRRLFGEDTP [P12T]: 6.22
GSAKRRLFTEDPP [G9T]: 5.94
